# Published values of several laboratories.
# Each line is one published result; not all experiments were run side by side.
# rep main protease: Replicase polyprotein 1ab, main protease (rep, Severe acute respiratory syndrome coronavirus 2, UniProt P0DTD1)
Compound,target or system,assay,system,setting,how to read,measurement,value
O=C(CCCCc1ccccc1)CP(=O)(O)O,Bacillus anthracis,microbial growth,STERNE34F2,,,MIC,> 200 µg/mL
CCOC(=O)[C@@H](Cc1ccc(O)c(O)c1)OC(=O)/C=C/c1ccc(O)c(O)c1,rep main protease,"reporter gene (Gaussia luciferase), inhibitor",,20 µM,,inhibition,-2.24%
O=C(Nc1nc(C23CC4CC(CC(C4)C2)C3)cs1)C1CCCCC1,Histoplasma capsulatum,microbial growth,,,,MIC,5 to 20 µM
O=C(O)c1cn(C2CC2)c2cc(N3CCNCC3)c(F)cc2c1=O,Yersinia pseudotuberculosis,,ATCC 6904,,,MIC,0.25 µM
CCCCCCCCCCCCCCCC(=O)NS(=O)(=O)OCCCC,Bacillus anthracis,,Sterne 34F2,,,MIC,> 200 µg/mL
O=C(Nc1nc(-c2ccccn2)cs1)C1CCCC1,Mycobacterium tuberculosis,"microbial growth, broth dilution",H37RV,,,MIC,3.1 to 6.3 µM
O=C(Nc1ncc(Cc2ccccc2)s1)C1CCSCC1,Histoplasma capsulatum,microbial growth,,,,MIC,10 to 20 µM
[O-][N+]1=C(c2ccc(Cl)cc2)C2=NCCN2c2ccccc21,Clostridium perfringens,,,,,MIC,0.25 to 1 µg/mL
O=C(Nc1nc(-c2ccccn2)cs1)c1cccc(F)c1F,Mycobacterium tuberculosis,"microbial growth, broth dilution",H37RV,,,MIC,0.098 to 0.19 µM
CNC(=O)[C@@H](NC(=O)[C@H](CC(C)C)[C@H](O)C(=O)NO)C(C)(C)C,C2C12,,,"10 µM, with: MP venom",reference: venom alone,viability difference,41.8%
CCCCCCCC(=O)CP(=O)(O)O,Bacillus anthracis,microbial growth,STERNE34F2,,,MIC,> 200 µg/mL
Cc1nc(NC(=O)CCC2CCCCC2)sc1Cc1ccccc1,Histoplasma capsulatum,microbial growth,,,,MIC,> 20 µM
Cn1cnc(Cn2c(=O)[nH]/c(=N\c3cc4cn(C)nc4cc3Cl)n(Cc3cc(F)c(F)cc3F)c2=O)n1,,,"human, moderate renal impairment","oral, 375 mg",,"dry mouth TEAE, Severe severity",0%
O=C(CCC1CCCCC1)Nc1nnc(Cc2ccccc2)s1,Histoplasma capsulatum,microbial growth,,,,MIC,> 20 µM
CCCCCCCCCCCCCCCC(=O)C(F)(F)P(=O)(O)O,Bacillus anthracis,microbial growth,STERNE34F2,,,MIC,200 µg/mL
Oc1c(Br)cc(Br)cc1-c1[nH]c(Br)c(Br)c1Br,Yersinia pseudotuberculosis,,ATCC 6904,,,MIC,32 µM
CN(C)[C@@H]1C(O)=C(C(N)=O)C(=O)[C@@]2(O)C(O)=C3C(=O)c4c(O)cccc4[C@@](C)(O)[C@H]3C[C@@H]12,Xanthomonas oryzae,,,,,MIC,8 µg/mL
CCCNC(=O)[C@H]1O[C@@H]1C(=O)N[C@H](C(=O)N1CCC[C@H]1C(=O)OC)[C@@H](C)CC,rep main protease,"reporter gene (Gaussia luciferase), inhibitor",,20 µM,,inhibition,-2.88%
O=C(Nc1ncc(-c2ccccc2)s1)C1CCCCC1,Histoplasma capsulatum,microbial growth,,,,MIC,> 20 µM
O=C(Nc1nc(-c2ccccn2)cs1)c1ccc(Cl)cc1,Mycobacterium tuberculosis,"microbial growth, broth dilution",H37RV,,,MIC,0.39 to 0.78 µM
CC[C@H](C)[C@H](NC(=O)[C@H](CC(C)C)NC(=O)[C@H](Cc1c[nH]c2ccccc12)NC(=O)[C@H](CCC(N)=O)NC(=O)[C@@H](NC(=O)[C@H](Cc1ccccc1)NC(=O)[C@H](C)NC(=O)[C@H](CCCCNC(=O)COCCOCCNC(=O)COCCOCCNC(=O)CC[C@H](NC(=O)CCCCCCCCCCCCCCCCCCC(=O)O)C(=O)O)NC(=O)[C@H](CCC(N)=O)NC(=O)[C@H](C)NC(=O)[C@@H](NC(=O)[C@H](CCCCN)NC(=O)[C@H](CC(=O)O)NC(=O)[C@H](CC(C)C)NC(=O)C(C)(C)NC(=O)[C@@H](NC(=O)[C@H](CO)NC(=O)[C@H](Cc1ccc(O)cc1)NC(=O)[C@H](CC(=O)O)NC(=O)[C@H](CO)NC(=O)[C@@H](NC(=O)[C@H](Cc1ccccc1)NC(=O)[C@@H](NC(=O)CNC(=O)[C@H](CCC(=O)O)NC(=O)C(C)(C)NC(=O)[C@@H](N)Cc1ccc(O)cc1)[C@@H](C)O)[C@@H](C)O)[C@@H](C)CC)[C@@H](C)CC)C(C)C)C(=O)N[C@@H](C)C(=O)NCC(=O)NCC(=O)N1CCC[C@H]1C(=O)N[C@@H](CO)C(=O)N[C@@H](CO)C(=O)NCC(=O)N[C@@H](C)C(=O)N1CCC[C@H]1C(=O)N1CCC[C@H]1C(=O)N1CCC[C@H]1C(=O)N[C@@H](CO)C(N)=O,,,healthy human,"0.5 mg, single ascending dose",,severe hypoglycaemia,0%
Oc1c(Cl)cc(Cl)cc1-c1[nH]c(Cl)c(Cl)c1Cl,Brucella anthropi,,ATCC 49687,,,MIC,0.5 µM
Cc1cccc(Nc2nc(-c3ccccn3)cs2)n1,Mycobacterium tuberculosis,"microbial growth, broth dilution",H37RV,,,MIC,0.78 to 1.6 µM
O=C(Nc1ncc(Cc2ccccc2)s1)N1CCOCC1,Histoplasma capsulatum,microbial growth,,,,MIC,> 20 µM
O=C(Nc1nc(-c2ccccn2)cs1)C1CCCCC1,Mycobacterium tuberculosis,"microbial growth, broth dilution",H37RV,,,MIC,1.6 to 3.1 µM
Nc1ncnc2c([C@@H]3N[C@H](CO)[C@@H](O)[C@H]3O)c[nH]c12,Marburg virus,viral replication,"HeLa, Musoke",3.1 µM,,inhibition,42%
O=C(Nc1ncc(CC2CCCCC2)s1)C1CCCCC1,Histoplasma capsulatum,microbial growth,,,,MIC,2.5 to 5 µM
Cc1ccc(Nc2nc(-c3ccccn3)cs2)cc1,Mycobacterium tuberculosis,"microbial growth, broth dilution",H37RV,,,MIC,6.3 to 12.5 µM

# Excerpt of the above:
Compound,target or system,assay,system,setting,how to read,measurement,value
Oc1c(Cl)cc(Cl)cc1-c1[nH]c(Cl)c(Cl)c1Cl,Brucella anthropi,,ATCC 49687,,,MIC,0.5 µM
Cc1cccc(Nc2nc(-c3ccccn3)cs2)n1,Mycobacterium tuberculosis,"microbial growth, broth dilution",H37RV,,,MIC,0.78 to 1.6 µM
